# Results pooled from the literature.
# Lines come from different studies, so protocols differ. “And” joins repeats or separate records; there may be more than shown. Numbers after ± are the reported error.
# UniProt Q9EPB5, sequence (whole entry, looked up): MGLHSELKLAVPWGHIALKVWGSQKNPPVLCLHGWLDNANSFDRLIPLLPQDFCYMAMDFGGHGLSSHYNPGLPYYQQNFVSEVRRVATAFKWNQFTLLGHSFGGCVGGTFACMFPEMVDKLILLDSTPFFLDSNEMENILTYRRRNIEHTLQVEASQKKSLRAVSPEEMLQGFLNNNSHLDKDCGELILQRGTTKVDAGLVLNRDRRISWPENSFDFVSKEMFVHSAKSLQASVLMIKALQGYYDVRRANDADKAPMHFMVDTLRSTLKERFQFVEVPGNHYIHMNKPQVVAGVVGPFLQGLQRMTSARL
# UniProt Q7M759, sequence (whole entry, looked up): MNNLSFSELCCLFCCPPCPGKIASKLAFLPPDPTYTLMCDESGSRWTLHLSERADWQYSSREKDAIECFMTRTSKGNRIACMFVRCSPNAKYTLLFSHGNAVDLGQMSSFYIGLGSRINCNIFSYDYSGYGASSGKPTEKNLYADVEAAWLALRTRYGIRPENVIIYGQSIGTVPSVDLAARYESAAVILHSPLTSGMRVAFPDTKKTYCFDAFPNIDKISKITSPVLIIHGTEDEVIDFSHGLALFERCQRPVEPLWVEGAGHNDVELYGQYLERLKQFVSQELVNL
# UniProt Q9UH17, sequence (whole entry, looked up): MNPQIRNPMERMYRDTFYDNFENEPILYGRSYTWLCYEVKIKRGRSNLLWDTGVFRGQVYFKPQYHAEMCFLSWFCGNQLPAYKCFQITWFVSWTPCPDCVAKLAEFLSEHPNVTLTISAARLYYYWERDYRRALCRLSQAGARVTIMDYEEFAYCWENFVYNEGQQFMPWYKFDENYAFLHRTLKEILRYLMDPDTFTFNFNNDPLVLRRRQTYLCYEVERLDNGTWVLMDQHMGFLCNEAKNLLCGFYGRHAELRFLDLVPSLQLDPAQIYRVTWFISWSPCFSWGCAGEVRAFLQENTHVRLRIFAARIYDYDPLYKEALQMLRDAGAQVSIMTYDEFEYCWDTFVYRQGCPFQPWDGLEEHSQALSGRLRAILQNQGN
# UniProt P0A988, sequence (whole entry, unmodified, looked up): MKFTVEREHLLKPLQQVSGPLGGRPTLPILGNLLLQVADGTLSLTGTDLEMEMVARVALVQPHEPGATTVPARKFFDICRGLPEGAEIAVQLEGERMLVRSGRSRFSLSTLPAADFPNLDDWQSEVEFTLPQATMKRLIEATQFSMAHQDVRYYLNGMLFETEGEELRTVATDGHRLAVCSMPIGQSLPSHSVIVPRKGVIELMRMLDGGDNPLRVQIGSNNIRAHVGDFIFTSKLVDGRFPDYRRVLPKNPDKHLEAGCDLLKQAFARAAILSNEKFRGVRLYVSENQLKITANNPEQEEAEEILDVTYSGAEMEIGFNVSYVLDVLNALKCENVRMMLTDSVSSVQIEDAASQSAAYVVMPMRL
# UniProt P28335, sequence (whole entry, looked up): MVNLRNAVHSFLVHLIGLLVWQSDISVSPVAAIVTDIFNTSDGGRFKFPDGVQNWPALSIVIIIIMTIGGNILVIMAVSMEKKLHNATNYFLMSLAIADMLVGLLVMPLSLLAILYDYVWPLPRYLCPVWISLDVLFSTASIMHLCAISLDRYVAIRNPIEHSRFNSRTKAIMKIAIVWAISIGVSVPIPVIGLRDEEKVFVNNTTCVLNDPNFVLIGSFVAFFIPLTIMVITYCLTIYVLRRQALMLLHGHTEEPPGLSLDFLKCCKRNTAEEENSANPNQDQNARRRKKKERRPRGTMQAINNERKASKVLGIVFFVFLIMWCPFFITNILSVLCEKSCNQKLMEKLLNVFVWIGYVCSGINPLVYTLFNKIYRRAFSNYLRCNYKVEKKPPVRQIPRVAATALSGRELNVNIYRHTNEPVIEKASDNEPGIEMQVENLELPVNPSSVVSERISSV
# UniProt Q9UBW7, sequence (whole entry, looked up): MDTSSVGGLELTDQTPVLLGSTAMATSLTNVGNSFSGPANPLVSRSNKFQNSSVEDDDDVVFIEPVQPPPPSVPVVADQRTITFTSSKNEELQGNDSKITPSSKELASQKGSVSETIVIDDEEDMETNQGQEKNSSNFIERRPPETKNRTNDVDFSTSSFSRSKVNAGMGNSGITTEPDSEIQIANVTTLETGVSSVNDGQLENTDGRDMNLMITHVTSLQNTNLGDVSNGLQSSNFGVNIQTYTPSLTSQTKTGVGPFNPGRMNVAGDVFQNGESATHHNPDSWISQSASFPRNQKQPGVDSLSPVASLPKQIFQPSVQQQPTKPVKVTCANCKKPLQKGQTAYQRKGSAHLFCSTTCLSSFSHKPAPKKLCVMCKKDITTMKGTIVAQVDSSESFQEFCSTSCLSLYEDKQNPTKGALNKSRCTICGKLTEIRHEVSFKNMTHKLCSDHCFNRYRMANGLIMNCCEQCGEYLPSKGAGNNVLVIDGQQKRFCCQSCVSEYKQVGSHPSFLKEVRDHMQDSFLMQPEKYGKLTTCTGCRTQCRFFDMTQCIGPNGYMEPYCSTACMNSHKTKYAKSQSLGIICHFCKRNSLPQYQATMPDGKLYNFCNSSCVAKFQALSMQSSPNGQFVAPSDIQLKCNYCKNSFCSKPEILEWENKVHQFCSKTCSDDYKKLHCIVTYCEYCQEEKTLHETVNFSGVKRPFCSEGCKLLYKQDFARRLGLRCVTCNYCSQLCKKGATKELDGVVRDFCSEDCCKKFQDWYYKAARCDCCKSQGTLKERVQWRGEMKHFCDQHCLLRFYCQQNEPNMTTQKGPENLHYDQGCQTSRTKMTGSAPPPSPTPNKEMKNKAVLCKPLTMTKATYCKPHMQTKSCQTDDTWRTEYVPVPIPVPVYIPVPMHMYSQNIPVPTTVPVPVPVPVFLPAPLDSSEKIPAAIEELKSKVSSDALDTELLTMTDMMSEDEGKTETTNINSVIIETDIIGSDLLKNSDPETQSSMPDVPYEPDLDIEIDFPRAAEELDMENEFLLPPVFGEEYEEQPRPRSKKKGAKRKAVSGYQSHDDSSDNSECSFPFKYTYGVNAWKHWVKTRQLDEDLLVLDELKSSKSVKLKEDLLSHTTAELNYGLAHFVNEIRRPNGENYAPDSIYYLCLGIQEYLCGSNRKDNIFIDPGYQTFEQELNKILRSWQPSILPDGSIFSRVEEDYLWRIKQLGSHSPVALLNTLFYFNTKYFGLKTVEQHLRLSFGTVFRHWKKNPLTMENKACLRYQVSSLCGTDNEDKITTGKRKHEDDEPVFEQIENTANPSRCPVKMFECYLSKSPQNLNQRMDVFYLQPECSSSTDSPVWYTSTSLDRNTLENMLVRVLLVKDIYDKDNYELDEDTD
# UniProt Q16512, sequence (whole entry, looked up): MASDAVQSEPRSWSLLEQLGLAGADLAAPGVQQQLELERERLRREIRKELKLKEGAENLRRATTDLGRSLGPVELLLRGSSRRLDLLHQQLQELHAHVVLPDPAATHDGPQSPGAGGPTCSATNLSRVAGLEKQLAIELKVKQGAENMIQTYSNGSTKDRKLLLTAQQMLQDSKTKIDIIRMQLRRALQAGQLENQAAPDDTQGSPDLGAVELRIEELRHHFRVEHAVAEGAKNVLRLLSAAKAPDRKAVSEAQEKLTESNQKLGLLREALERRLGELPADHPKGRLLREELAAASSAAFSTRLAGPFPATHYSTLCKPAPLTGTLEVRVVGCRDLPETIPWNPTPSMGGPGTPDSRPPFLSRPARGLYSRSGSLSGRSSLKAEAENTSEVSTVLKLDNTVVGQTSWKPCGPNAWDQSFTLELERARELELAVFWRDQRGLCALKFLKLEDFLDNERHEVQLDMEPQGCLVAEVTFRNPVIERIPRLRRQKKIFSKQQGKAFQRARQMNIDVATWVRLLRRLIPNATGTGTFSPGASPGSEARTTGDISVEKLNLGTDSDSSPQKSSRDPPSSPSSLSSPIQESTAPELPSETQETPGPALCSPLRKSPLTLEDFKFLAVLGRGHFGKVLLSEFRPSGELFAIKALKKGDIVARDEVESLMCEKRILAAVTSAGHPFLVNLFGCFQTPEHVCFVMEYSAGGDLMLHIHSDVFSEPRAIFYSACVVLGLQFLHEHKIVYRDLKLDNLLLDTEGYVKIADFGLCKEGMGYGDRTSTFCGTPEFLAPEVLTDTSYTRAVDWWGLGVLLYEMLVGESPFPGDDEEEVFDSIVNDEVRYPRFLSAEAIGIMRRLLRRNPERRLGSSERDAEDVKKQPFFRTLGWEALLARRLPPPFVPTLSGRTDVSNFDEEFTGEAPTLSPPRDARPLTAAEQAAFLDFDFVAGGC
# UniProt Q62666, sequence (whole entry, looked up): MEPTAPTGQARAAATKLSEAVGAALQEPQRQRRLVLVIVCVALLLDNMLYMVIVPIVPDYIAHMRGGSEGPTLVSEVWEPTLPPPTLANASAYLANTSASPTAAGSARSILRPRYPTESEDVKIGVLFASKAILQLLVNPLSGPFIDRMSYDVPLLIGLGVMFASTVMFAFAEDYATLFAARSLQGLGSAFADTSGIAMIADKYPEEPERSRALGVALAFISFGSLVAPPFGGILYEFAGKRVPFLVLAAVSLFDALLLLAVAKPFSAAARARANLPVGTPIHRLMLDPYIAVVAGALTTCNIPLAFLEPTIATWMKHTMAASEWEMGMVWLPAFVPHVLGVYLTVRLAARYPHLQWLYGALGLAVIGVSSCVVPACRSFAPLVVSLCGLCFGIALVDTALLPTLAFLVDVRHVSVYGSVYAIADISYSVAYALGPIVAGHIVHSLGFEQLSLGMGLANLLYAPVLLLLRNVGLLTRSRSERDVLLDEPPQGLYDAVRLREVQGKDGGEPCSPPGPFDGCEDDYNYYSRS
# UniProt Q6DWJ6, sequence (whole entry, looked up): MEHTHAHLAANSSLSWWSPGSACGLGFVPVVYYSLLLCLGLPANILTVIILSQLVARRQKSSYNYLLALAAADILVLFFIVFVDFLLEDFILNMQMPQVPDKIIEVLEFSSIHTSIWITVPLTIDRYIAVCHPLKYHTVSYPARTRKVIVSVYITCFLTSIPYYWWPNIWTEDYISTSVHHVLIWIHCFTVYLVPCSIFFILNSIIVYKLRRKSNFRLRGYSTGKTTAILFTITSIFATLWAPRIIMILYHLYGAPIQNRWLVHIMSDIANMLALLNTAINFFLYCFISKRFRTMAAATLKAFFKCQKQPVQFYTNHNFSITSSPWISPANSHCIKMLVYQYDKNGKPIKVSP
Compound,target,assay,system,setting,scale,quantity,value
CS(C)(=O)=Nc1ccc(-c2ccc(-c3nc4cc(O[C@@H]5CO[C@H]6[C@@H]5OC[C@H]6O)[nH]c4cc3F)cc2)cc1,"Cyclin-dependent kinase 6, with cyclin D3 (CDK6, Homo sapiens, UniProt Q00534)","enzyme activity, inhibitor",,10 µM,,inhibition,4%
COC(=O)[C@@H](NC(=O)c1nn(Cc2ccc(F)cc2)c2cc(OCCCCNC(=N)N)ccc12)C(C)(C)C,"Cannabinoid receptor 1 (CNR1, Homo sapiens, UniProt P21554)","β-arrestin recruitment, agonist, BRET",,,,Emax,47%
COc1ccc(CC(=O)N2CCN(CC(OCc3ccc4ccccc4c3)c3ccc(Cl)cc3Cl)CC2)cc1 (centres unmarked),"Serine/threonine-protein kinase ULK1 (ULK1, Homo sapiens, UniProt O75385)","enzyme activity, inhibitor, ADP detection",,0.1 µM,,activity vs control,146%
CCc1nnc(-c2c(OC)cc(-c3cnc4cc(-c5cnn(C)c5)ccn34)cc2OC)o1,"Histamine H2 receptor (HRH2, Homo sapiens, UniProt P25021)","antagonist radioligand, radioligand binding",,"10 µM, SafetyScreen44 H2 mean",lower = stronger displacement,remaining binding,107%
COCC1CCCCN1C(=O)n1cc(C(O)(c2ccccc2)c2ccccc2)nn1 (centres unmarked),"Alpha/beta hydrolase domain-containing protein 17B (Abhd17b, Mus musculus, UniProt Q7M759)","probe labelling, inhibitor, competitive ABPP-SILAC, refers to: Fam108b1",mouse T cells,"concentration not given, 4 h, single peptide","baseline: treated over DMSO cells, lower = stronger inhibition",SILAC activity ratio,1.1 and 1.17 and 1.33
C=CC(=O)Nc1cc(-c2ccc(C(=O)N3CCCC(O)(CC)C3)cc2)ccc1F (centres unmarked),"DNA dC->dU-editing enzyme APOBEC-3B, C-terminal domain (Homo sapiens, UniProt Q9UH17)","covalent adduct, intact protein MS",,"1 h, 1-fold, 25 µM",,adducted protein,0%
CC(C)CC(O)(CC(C)C)c1cn(C(=O)N2CCCC2)nn1,"Serine hydrolase-like protein (Serhl, Mus musculus, UniProt Q9EPB5)","probe labelling, inhibitor, competitive ABPP-SILAC, refers to: Serhl",mouse T cells,"concentration not given, 4 h, in situ, single peptide","baseline: treated over DMSO, lower = more inhibition",SILAC ratio,0.94 and 0.84 and 0.69 and 1.76 and 1.74 and 1.75
Cc1cc(Nc2nc(C[C@@]3(C(=O)O)CCN(Cc4cccc(Cl)c4F)[C@H](C)C3)cc(C)c2F)[nH]n1,"5-hydroxytryptamine receptor 2C (HTR2C, Homo sapiens, UniProt P28335)",agonist,,10 µM,,activation,0.41%
CN(C)[C@H]1C[C@@]23CC[C@@]4(O2)C(=CC[C@]2(C)[C@@H](c5ccc6ccncc6c5)CC[C@H]24)C=C3[C@@H](O)[C@@H]1O,"Serine/threonine-protein kinase N1 (PKN1, Homo sapiens, UniProt Q16512)","ATP probe labelling, inhibitor, KiNativ profiling",,0.1 µM,,inhibition,-3.5%
Cc1ccc(NC(=O)CCc2cccc(NC3=CC(=O)N(C4CCC(=O)NC4=O)C3=O)c2)cc1Cl (centres unmarked),"Zinc finger MYM-type protein 2 (ZMYM2, Homo sapiens, UniProt Q9UBW7)","degrader, quantitative proteomics, refers to: protein abundance",Jurkat,"1 µM, 4 h",baseline: DMSO,log2 fold change,-0.416
OC1Cc2ccccc2CC1N1CCC2(C=Cc3ccc(Br)cc32)CC1 (racemic),"Vesicular acetylcholine transporter (Rattus norvegicus, UniProt Q62666)",,,,baseline: Ki sigma1 over Ki VAChT,selectivity ratio,0.32
CCC1(CC)C(=O)N(c2cccc(CN3CCc4cc5c(cc4C3)OCO5)c2)C1=O,"Dipeptidyl peptidase 8 (Homo sapiens, UniProt Q6V1X1)",inhibitor,,with: GP-AMC substrate,baseline: Ki' DPP9 over Ki' DPP8,selectivity ratio,4
CC[C@H](C)[C@H](NC(=O)[C@H](CCCNC(=N)N)NC(=O)[C@H](CCCNC(=N)N)NC(=O)[C@H](CC(C)C)NC(=O)[C@H](Cc1ccccc1)NC(=O)CNC(=O)CNC(=O)[C@@H](N)Cc1ccc(O)cc1)C(=O)N[C@@H](CCCNC(=N)N)C(=O)N1CCC[C@H]1C(=O)N[C@@H](CCCCN)C(=O)N[C@@H](CC(C)C)C(=O)N[C@@H](CCCCN)C(=O)O,"Probable G-protein coupled receptor 139 (GPR139, Homo sapiens, UniProt Q6DWJ6)","G protein activation, agonist, BRET, refers to: Gα12",HEK-293T/17,40 µM,baseline: GαoA response,Emax,7.71%
C[C@H](NCc1ccc(-c2ccc(C(F)(F)F)cc2)cc1)C(N)=O,"NMDA receptor phencyclidine site, rat","binding, radioligand binding",biochemical,"1 µM, with: [3H]TCP 4.0 nM",,inhibition,3%
CCCCC/C=C\C/C=C\C/C=C\C/C=C\CCCC(=O)NCCc1ccc(O)c(O)c1,"Transient receptor potential cation channel subfamily V member 1 (Trpv1, Mus musculus, UniProt Q704Y3, Y512F)","ion current, agonist, whole-cell patch clamp",,Y512F,baseline: 3 mM 2-APB,maximal open probability,1.02 ± 0.16
CC(C)[C@H]1NC(=O)C[C@H]2/C=C/CCSSC[C@@H](NC1=O)C(=O)N[C@H](Cc1cccc3ccccc13)C(=O)NCC(=O)O2,"BDNF/NT-3 growth factors receptor (NTRK2, Homo sapiens, UniProt Q16620)","enzyme activity, inhibitor",,10 µM,,inhibition,1.2%
CCN1CCN(C2CCN(C(=O)COc3ccc(-c4ccc(OC)cc4)cc3)CC2)CC1,"uncharacterized protein (Anopheles gambiae, UniProt Q7QFG0)","enzyme activity, inhibitor, Ellman",,"up to 1000 µM, pH 7.4, 30 °C, with: 1 mM acetylthiocholine",,IC50,inactive
C=CC(=O)NC[C@H](NC(=O)[C@H](CC1CCCCC1)NC(=O)[C@H](CCC(N)=O)NC(C)=O)C(=O)N[C@@H](CC(C)C)C(=O)N[C@@H](Cc1ccccc1)C(=O)O,"Beta sliding clamp (Escherichia coli, UniProt P0A988, H175G)",isothermal titration calorimetry,,25 °C,,-TΔS,3.3 kcal/mol
CCOC(=O)[C@@H]1Cc2c(cc([N+](=O)[O-])cc2[N+](=O)[O-])[C@H](O)[C@]12C(=O)Nc1ccc(Br)cc12,"Serine/threonine-protein kinase PLK4 (PLK4, Homo sapiens, UniProt O00444)","binding, competition with immobilised ligand",,0.1 µM,,remaining binding,45%
O=C1NC(=O)c2c1c1cc(F)c[n+]3c1c1c2c2cc(O)ccc2[n]1[Ru-4]312([N]=C=S)[S+]3CC[S+]1CC[S+]2CC3 (centres unmarked),"Mitogen-activated protein kinase kinase kinase 7 (MAP3K7, Homo sapiens, UniProt O43318)",enzyme activity,,"100 nM, human enzyme, with: 10 µM ATP",baseline: untreated,remaining activity,104%
O=C(CN1CN(c2ccccc2)C2(CCN(C(=O)c3cnc4[nH]ncc4c3)CC2)C1=O)NCC(F)(F)F,"Epidermal growth factor receptor (EGFR, Homo sapiens, UniProt P00533, L861Q)",inhibitor,,concentration not given,,inhibition,< 50%
N[C@H](C(=O)N1CCCC1)C1CCN(c2nccc3c(-c4ncc(Cl)cc4Cl)cccc23)CC1,"Alpha-2B adrenergic receptor (ADRA2B, Homo sapiens, UniProt P18089)","functional response, agonist",,10 µM,,response,-3%
C#CCCCCOc1ccc2c(c1)CCCN2C(=O)CCl,"AP-3 complex subunit beta-1 (AP3B1, Homo sapiens, UniProt O00203)",mass spectrometry profiling,H460 cell lysate,"100 µM over 10 µM, UniProt O00203",baseline: high over low concentration,reactivity ratio,1.24

# Excerpt of the above:
Compound,target,assay,system,setting,scale,quantity,value
CC[C@H](C)[C@H](NC(=O)[C@H](CCCNC(=N)N)NC(=O)[C@H](CCCNC(=N)N)NC(=O)[C@H](CC(C)C)NC(=O)[C@H](Cc1ccccc1)NC(=O)CNC(=O)CNC(=O)[C@@H](N)Cc1ccc(O)cc1)C(=O)N[C@@H](CCCNC(=N)N)C(=O)N1CCC[C@H]1C(=O)N[C@@H](CCCCN)C(=O)N[C@@H](CC(C)C)C(=O)N[C@@H](CCCCN)C(=O)O,"Probable G-protein coupled receptor 139 (GPR139, Homo sapiens, UniProt Q6DWJ6)","G protein activation, agonist, BRET, refers to: Gα12",HEK-293T/17,40 µM,baseline: GαoA response,Emax,7.71%
CCOC(=O)[C@@H]1Cc2c(cc([N+](=O)[O-])cc2[N+](=O)[O-])[C@H](O)[C@]12C(=O)Nc1ccc(Br)cc12,"Serine/threonine-protein kinase PLK4 (PLK4, Homo sapiens, UniProt O00444)","binding, competition with immobilised ligand",,0.1 µM,,remaining binding,45%
